Assay results pooled from the literature.
Each numbered part is a random draw from the data of one study; scales do not carry over between parts. Positions count from the first letter of the parent shown.
Chain of UniProt Q9UQM7 (whole entry, looked up): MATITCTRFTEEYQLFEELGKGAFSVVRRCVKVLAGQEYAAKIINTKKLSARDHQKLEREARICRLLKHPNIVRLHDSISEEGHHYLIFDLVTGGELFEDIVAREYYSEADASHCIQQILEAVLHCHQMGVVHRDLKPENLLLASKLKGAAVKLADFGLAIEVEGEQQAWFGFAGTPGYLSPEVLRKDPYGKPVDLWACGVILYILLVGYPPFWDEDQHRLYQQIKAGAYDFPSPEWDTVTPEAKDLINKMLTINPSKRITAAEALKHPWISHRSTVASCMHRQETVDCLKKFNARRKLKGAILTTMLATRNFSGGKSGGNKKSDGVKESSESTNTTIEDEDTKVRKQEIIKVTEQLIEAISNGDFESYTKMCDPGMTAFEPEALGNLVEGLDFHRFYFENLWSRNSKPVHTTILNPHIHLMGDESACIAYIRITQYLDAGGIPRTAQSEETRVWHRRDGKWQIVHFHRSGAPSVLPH
Chain of UniProt Q9UPZ9 (whole entry, looked up): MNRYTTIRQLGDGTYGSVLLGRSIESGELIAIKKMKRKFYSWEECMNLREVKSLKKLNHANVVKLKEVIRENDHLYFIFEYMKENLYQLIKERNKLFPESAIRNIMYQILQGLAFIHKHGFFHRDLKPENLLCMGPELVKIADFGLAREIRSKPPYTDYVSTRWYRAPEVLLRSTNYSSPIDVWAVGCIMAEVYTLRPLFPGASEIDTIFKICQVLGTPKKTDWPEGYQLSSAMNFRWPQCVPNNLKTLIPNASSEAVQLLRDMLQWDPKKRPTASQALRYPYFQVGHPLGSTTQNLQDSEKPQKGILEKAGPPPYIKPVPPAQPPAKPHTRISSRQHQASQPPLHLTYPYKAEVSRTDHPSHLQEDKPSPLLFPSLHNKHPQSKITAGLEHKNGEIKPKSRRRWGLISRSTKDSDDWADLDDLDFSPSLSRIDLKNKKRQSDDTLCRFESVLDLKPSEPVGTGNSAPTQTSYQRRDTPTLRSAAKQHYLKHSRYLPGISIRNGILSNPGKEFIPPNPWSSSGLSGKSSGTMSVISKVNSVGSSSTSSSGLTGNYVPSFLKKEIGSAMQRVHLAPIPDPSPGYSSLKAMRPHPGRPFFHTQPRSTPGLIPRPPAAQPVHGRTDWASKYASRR
Chain of UniProt Q16620 (whole entry, looked up): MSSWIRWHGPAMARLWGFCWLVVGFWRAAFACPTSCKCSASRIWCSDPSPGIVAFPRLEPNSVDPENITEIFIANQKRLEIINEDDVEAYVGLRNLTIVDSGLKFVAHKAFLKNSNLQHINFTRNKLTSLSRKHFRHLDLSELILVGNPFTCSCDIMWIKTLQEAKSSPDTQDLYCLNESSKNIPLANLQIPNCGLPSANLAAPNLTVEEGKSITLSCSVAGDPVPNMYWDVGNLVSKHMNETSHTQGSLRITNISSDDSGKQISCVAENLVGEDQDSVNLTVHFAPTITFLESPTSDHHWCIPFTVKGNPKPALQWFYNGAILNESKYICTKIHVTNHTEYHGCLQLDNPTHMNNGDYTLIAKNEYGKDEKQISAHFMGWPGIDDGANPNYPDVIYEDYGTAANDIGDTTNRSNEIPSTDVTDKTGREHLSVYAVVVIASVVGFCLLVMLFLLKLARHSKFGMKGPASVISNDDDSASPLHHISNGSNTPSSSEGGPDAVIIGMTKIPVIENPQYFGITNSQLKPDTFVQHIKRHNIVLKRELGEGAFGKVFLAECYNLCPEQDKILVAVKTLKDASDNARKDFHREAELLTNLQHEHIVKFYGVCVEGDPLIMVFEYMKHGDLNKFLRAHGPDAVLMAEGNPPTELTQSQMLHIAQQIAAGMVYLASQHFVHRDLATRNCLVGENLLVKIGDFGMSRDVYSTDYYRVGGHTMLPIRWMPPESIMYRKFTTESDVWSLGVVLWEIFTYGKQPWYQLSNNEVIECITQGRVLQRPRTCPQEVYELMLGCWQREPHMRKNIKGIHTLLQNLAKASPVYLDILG

Series 1 — observed: enzyme activity; action: inhibitor; tested at: 77 µM; reference: untreated
Target: DNA polymerase theta, ATPase domain (POLQ, Homo sapiens, UniProt O75417)
Chain of UniProt O75417 (whole entry, unmodified, looked up): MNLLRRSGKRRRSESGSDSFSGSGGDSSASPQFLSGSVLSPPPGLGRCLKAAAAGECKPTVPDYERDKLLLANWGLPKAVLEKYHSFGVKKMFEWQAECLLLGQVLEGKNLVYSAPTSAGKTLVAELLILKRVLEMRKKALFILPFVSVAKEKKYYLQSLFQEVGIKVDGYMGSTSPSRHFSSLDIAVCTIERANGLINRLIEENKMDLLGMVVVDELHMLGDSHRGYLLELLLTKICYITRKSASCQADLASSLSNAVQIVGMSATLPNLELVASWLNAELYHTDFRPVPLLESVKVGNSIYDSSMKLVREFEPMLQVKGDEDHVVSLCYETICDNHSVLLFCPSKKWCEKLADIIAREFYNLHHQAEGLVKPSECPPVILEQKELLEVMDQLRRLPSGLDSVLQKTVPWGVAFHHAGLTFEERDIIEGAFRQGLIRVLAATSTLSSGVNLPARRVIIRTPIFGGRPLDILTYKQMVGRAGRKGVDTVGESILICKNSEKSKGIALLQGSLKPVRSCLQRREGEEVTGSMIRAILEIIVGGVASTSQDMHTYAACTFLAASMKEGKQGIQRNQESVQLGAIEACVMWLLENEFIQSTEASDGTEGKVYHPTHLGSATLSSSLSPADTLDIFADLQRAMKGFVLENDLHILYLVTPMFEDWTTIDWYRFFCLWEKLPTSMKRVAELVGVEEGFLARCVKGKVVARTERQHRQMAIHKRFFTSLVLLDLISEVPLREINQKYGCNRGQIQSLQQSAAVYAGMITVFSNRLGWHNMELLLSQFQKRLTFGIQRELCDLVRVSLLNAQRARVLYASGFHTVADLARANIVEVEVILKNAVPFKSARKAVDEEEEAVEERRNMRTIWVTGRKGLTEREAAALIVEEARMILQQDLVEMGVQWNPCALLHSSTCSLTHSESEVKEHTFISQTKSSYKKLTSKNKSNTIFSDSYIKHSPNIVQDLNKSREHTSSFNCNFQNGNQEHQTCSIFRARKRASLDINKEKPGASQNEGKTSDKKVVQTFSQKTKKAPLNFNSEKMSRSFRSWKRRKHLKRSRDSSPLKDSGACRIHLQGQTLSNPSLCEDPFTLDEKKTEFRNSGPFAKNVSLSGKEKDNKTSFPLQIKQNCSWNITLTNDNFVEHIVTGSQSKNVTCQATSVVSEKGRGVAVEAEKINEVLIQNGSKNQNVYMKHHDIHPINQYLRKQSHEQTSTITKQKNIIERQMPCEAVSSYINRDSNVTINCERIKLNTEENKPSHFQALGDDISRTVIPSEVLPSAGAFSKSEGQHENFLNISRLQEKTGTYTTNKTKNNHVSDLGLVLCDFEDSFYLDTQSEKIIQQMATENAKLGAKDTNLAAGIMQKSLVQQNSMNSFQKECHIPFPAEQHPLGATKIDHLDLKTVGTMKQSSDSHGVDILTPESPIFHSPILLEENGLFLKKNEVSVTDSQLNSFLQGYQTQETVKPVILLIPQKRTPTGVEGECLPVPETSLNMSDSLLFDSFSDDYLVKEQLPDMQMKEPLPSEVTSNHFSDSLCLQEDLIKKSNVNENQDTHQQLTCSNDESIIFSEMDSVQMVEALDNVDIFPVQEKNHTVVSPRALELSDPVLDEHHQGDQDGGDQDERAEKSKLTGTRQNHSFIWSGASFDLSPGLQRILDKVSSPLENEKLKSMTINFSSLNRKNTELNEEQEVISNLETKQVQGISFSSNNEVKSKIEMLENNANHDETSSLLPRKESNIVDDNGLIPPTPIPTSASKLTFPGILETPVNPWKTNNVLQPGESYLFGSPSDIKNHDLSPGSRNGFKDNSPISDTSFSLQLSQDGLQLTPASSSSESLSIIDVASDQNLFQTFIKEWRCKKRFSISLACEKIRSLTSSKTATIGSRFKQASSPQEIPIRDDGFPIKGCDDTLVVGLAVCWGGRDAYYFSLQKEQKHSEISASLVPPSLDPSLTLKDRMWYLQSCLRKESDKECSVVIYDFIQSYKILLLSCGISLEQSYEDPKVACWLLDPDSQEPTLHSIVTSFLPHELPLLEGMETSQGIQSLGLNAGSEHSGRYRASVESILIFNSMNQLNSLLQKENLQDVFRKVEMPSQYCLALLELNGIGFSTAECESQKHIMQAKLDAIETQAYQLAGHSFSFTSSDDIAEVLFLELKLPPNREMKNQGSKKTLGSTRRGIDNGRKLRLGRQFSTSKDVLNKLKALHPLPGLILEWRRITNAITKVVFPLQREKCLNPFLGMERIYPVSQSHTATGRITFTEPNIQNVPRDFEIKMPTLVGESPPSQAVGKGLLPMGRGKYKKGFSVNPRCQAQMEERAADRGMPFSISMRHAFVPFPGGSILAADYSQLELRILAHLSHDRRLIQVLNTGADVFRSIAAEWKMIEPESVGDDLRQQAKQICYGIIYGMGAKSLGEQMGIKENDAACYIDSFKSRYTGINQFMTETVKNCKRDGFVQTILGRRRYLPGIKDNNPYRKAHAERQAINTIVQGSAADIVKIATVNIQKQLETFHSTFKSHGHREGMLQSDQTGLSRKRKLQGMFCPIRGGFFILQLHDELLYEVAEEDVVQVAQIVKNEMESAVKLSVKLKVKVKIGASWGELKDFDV
| SMILES | remaining activity |
| --- | --- |
| O=C1NCN(c2ccccc2)C12CCN(CC1COc3ccccc3O1)CC2 (stereo not shown) | 95.2% |
| COc1ccc2c(c1)[C@]13CCCC[C@@H]1[C@H](C2)N(C)CC3 | 102% |
| CC[C@H](C)C[C@H](C)CCCCCCCCC(=O)N[C@H]1C[C@@H](O)[C@@H](NCCN)NC(=O)[C@@H]2[C@@H](O)CCN2C(=O)[C@H]([C@H](O)CCN)NC(=O)[C@H]([C@H](O)[C@@H](O)c2ccc(O)cc2)NC(=O)[C@@H]2C[C@@H](O)CN2C(=O)[C@H]([C@@H](C)O)NC1=O | 96.3% |

Series 2 — target: CCNE1, cyclin fold, Cln2 fusion (human); technique: yeast growth competition, sequencing; matrix: yeast; setting: strong parent motif; reference: not given; direction: higher = stronger binding; starting sequence: viral docking peptide; CKVKRKLFGSENI
| Variant | normalised enrichment score |
| --- | --- |
| CKVKKKLLGSENI [R5K F8L] | -0.00208 |
| CAVKRKLFGSENI [K2A] | 5.43 |
| CKVKRKLFGSEAI [N12A] | 4.99 |
| CKVKAKLFGSENI [R5A] | 0.324 |
| AKVKRKLFGSENI [C1A] | 5.3 |
| CKVKRALFGSENI [K6A] | 3.05 |
| CKVKRKLFGAENI [S10A] | 4.85 |
| CKVKRKLFGSENA [I13A] | 5.52 |

Series 3 — organism: Sarcocystis neurona; observed: parasite growth; tested at: 10 µM; time: 96 h
| Structure (SMILES) | inhibition [%] |
| --- | --- |
| FC(F)(F)c1cccc(N2CCNCC2)c1 | -15.4 |
| C[C@]12CC[C@H](O)CC1=CC[C@@H]1[C@@H]2CC[C@@]2(C)[C@H]1CC[C@]2(C)O | -6.8 |
| CN1C(=O)COc2c(C(=O)NC3CN4CCC3CC4)cc(Cl)cc21 (stereo not shown) | -9.4 |

Series 4 — cell line: mouse MPNST tumor cells; technique: high-content immunofluorescence imaging; measured: nuclear SOX9; tested at: 10 µM; time: 12 h; setting: mean of 2 replicates; reference: DMSO control; direction: higher = more nuclear SOX9
| SMILES | nuclear SOX9 intensity |
| --- | --- |
| CC[C@H]1CN2CC[C@H]1C[C@@H]2[C@@H](O)c1ccnc2ccc(OC)cc12 | 114 % of DMSO |
| COc1ccc2c(c1)[C@]13CCCC[C@@H]1[C@H](C2)N(C)CC3 | 117 % of DMSO |
| CCOC(=O)c1ncc2[nH]c3ccc(OCc4ccccc4)cc3c2c1COC | 121 % of DMSO |

Series 5 — technique: competition with immobilised ligand; tested at: 1 µM
Structure (SMILES): Cn1cncc1[C@@](O)(COc1ccc(C#N)cc1-c1ccc(OC(F)(F)F)cc1)c1ccc(C#N)cc1
| target | test | remaining binding |
| --- | --- | --- |
| PRPF4B (Homo sapiens, UniProt Q13523) | cell-free assay | 100% |
| GRK2 (Homo sapiens, UniProt P25098) | cell-free assay | 95% |
| NTRK2 (Homo sapiens, UniProt Q16620) | cell-free assay | 88% |
| PIP5K1A (Homo sapiens, UniProt Q99755) | cell-free assay | 87% |
| CAMK2A (Homo sapiens, UniProt Q9UQM7) | cell-free assay | 84% |
| CAMK1G (Homo sapiens, UniProt Q96NX5) | cell-free assay | 85% |
| PIK3C2B (Homo sapiens, UniProt O00750) | cell-free assay | 95% |
| ULK1 (Homo sapiens, UniProt O75385) | cell-free assay | 95% |
| CDK18 (Homo sapiens, UniProt Q07002) | cell-free assay | 100% |
| DYRK2 (Homo sapiens, UniProt Q92630) | cell-free assay | 89% |
| CILK1 (Homo sapiens, UniProt Q9UPZ9) | binding | 75% |
| Ribosomal protein S6 kinase alpha-2, C-terminal kinase domain (RPS6KA2, Homo sapiens, UniProt Q15349) | cell-free assay | 98% |
| PIK3C2G (Homo sapiens, UniProt O75747) | cell-free assay | 61% |
| Tyrosine-protein kinase ABL1, phosphorylated (ABL1, Homo sapiens, UniProt P00519, Q252H) | cell-free assay | 84% |
| Tyrosine-protein kinase ABL1, phosphorylated (ABL1, Homo sapiens, UniProt P00519, H396P) | cell-free assay | 92% |
| CDC42BPA (Homo sapiens, UniProt Q5VT25) | cell-free assay | 81% |
| FRK (Homo sapiens, UniProt P42685) | cell-free assay | 100% |
| MAPK8 (Homo sapiens, UniProt P45983) | cell-free assay | 77% |
| Ribosomal protein S6 kinase alpha-5, C-terminal kinase domain (RPS6KA5, Homo sapiens, UniProt O75582) | cell-free assay | 81% |
| TGFBR1 (Homo sapiens, UniProt P36897) | cell-free assay | 78% |
| Tyrosine-protein kinase ABL1, non-phosphorylated (ABL1, Homo sapiens, UniProt P00519) | cell-free assay | 95% |
| RET (Homo sapiens, UniProt P07949, V804M) | cell-free assay | 98% |
| CAMK2G (Homo sapiens, UniProt Q13555) | cell-free assay | 98% |
| DAPK1 (Homo sapiens, UniProt P53355) | cell-free assay | 100% |
| TNK1 (Homo sapiens, UniProt Q13470) | cell-free assay | 88% |

Series 6 — cell line: HaCaT; tested at: 100 µM; time: 60 h
| SMILES | viability |
| --- | --- |
| NCC1(CC(=O)O)CCCCC1 | 150% |
| CC(C)NCC(O)c1ccccc1Cl (stereo not shown) | 139% |
| CCOC(=O)c1cncn1[C@H](C)c1ccccc1 | 125% |

Series 7 — action: antagonist
Target: Beta-1 adrenergic receptor (ADRB1, Homo sapiens, UniProt P08588)
Chain of UniProt P08588 (whole entry, looked up): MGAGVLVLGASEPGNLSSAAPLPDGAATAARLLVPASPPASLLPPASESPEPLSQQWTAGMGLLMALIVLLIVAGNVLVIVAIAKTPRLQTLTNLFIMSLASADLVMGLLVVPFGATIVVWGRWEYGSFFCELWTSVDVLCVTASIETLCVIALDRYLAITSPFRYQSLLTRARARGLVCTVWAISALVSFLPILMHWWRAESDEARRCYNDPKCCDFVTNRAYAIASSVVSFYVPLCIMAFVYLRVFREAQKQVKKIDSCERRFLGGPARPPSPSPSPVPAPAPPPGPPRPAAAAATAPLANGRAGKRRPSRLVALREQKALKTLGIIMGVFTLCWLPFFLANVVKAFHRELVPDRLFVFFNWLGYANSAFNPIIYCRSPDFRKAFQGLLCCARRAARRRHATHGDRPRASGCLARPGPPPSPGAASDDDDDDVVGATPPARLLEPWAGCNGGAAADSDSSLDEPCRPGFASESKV
| Structure (SMILES) | IC50 |
| --- | --- |
| CC(C)[C@H]1C(=O)N2CCC[C@H]2[C@]2(O)O[C@](NC(=O)[C@@H]3C=C4c5cccc6[nH]cc(c56)C[C@H]4N(C)C3)(C(C)C)C(=O)N12 | ≥ 100 µM |
| CC[C@H](C)C(NC(=O)[C@H](CCC(=O)O)NC(=O)[C@@H](NC(C)=O)C(C)C)C(=O)N[C@@H](CC(=O)O)C(=O)Nc1ccc2c(C)cc(=O)oc2c1 (stereo partly shown) | ≥ 100 µM |
| CC(C)(C)NCC(O)c1ccccc1F (stereo not shown) | ≥ 100 µM |

Series 8 — observed: enzyme activity; action: inhibitor; tested at: 10 µM
Target: Calcium/calmodulin-dependent protein kinase type II subunit alpha (CAMK2A, Homo sapiens, UniProt Q9UQM7)
| SMILES | inhibition |
| --- | --- |
| COc1ccc(CC2c3cc(OC)c(OC)cc3CCN2C)cc1OC (racemic) | -15% |
| N[C@H]1C[C@@H]1c1ccccc1 | -8% |
| CC[C@H]1CN2CCc3cc(OC)c(OC)cc3[C@@H]2C[C@@H]1C[C@H]1NCCc2cc(O)c(OC)cc21 | -17% |
| C=C(C)[C@H]1Cc2c(ccc3c2O[C@@H]2COc4cc(OC)c(OC)cc4[C@@H]2C3=O)O1 | 10% |
